Measured values from different studies.
A part holds a random share of what one study measured. Positions count from the first letter of the parent shown.

Set 1
Target: ABI1, truncated, D143A, DHFR fusion (Arabidopsis thaliana)
Technique: DHFR PCA, deep sequencing
Matrix: yeast
Setting: methotrexate growth selection, single substitutions
Added: (+)-ABA 4.8 µM
Reference: wild-type fitted maximum
Direction: higher = stronger binding
Starting sequence: PYL1, truncated, DHFR fusion (Arabidopsis thaliana); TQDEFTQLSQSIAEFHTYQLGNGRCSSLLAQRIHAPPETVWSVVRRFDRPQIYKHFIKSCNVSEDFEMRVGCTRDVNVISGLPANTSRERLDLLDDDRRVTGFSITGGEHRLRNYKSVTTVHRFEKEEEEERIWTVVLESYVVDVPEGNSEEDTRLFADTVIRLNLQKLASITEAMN
`I57R`: “relative binding score” 1.95%.
For `T154E`, “relative binding score” read -11.9%.
Under “relative binding score”, `Q10E` is recorded as 84.5%.
Under “relative binding score”, `V143A` is recorded as 6.53%.
Under “relative binding score”, `E129R` is recorded as 66.1%.

Set 2
Target: RNA binding protein fox-1 homolog 2, RRM domain, GST-SBP tag (RBFOX2, Homo sapiens, UniProt O43251-10, residues 100-194)
Technique: RNA Bind-n-Seq
Molecule type: RNA
Matrix: in vitro
Tested at: 365 nM
Setting: natural RNA segment, single round, ends assumed
Reference: no-protein control
Direction: higher = stronger binding
All sequences stand within: GGGAGUUCUACAGUCCGACGAUC … UGGAAUUCUCGGGUGCCAA
Residues (chain): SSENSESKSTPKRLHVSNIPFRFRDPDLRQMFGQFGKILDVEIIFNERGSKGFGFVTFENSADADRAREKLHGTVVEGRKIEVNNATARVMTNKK
Under “RBNS enrichment (R)”, `GGUGCUCUCUGGCUCCCAGAUGUCUAGGGCUCCAGACUCCAAGAGGGCUGAGCCUUCUCUUCUGUCUGCAGCCACAAUAGGCUUCCUCAGACGCUGGCUUGAGAGGAGCC` is recorded as 0.282.
Under “RBNS enrichment (R)”, `GCCACGUUGUCAUUGUGAGUCUAUAGCUUGACUCCUUGGAGAACAAUAUUCAUUUGGUUGUGGAGACUGAUUUGCUGGGAGAAAUCUGUCCUGUUACUUUCUGGUCAUCC` is recorded as 0.651.
`CCGAGGAGGAGGUCCCCUGGGCACAGGGCCUCUUUGGGACUUCAGAGGAAAUCUCCCAGUCCCACUCUCGGAGGGUUAAGAGAAGGCCUCCUGCAGCUGUGCCGUCCACA` — result for “RBNS enrichment (R)”: 0.381.
For `ACAUGUCUACCAAAAAAUGAUGUGGAGGUUUAGGUGGGAUUCACCCUUAGUACAAUUCUUAGUGUCAAUAGCACAGCACCCCAGCUUGUACAAGUCAUUCUCUGUUAGGA`, “RBNS enrichment (R)” read 0.394.
For `UCUGGACCACCCAGGGCCUCCACUGCCACCUUGGCUGGCAAGGGAGAAAUGUGUUGUGUUGUCUUAGCUUUAAAACAGUCACAGUUCUUGCUCUAUCAUAGAUGAACAAA`, “RBNS enrichment (R)” read 0.286.
`CCAAGUGACUCAAGAUUUGGCAGCCCCAGAGAUGCCAACUGCAGCAUGCCCACCUGUAUUCCCUGUCCCCUUCCUUCAUGAAGGCAUCUCCAGGCAAGGAAAACUGAAGU`: “RBNS enrichment (R)” 6.77.

Set 3
Target: TAR DNA-binding protein 43, full length, His tag (TARDBP, Homo sapiens, UniProt Q13148, residues 1-414)
Technique: RNA Bind-n-Seq
Molecule type: RNA
Matrix: in vitro
Tested at: 20 nM
Setting: 6-mer, flanks averaged, single round
Added: 150 mM KCl
Reference: input library
Direction: higher = stronger binding
Under “6-mer enrichment (R)”, `UUCGUA` is recorded as 0.575.
For `UUAGAA`, “6-mer enrichment (R)” read 0.685.
`GUGAGA` — result for “6-mer enrichment (R)”: 1.54.
`CUGUAU`: “6-mer enrichment (R)” 0.674.
For `GACAUU`, “6-mer enrichment (R)” read 0.647.
`UCAUCU` — result for “6-mer enrichment (R)”: 0.524.
`UAAUUA`: “6-mer enrichment (R)” 0.72.
For `CCACGC`, “6-mer enrichment (R)” read 0.702.

Single results of other studies
`PhoQ, residues 284 288 289 292 302 303 STVVAA` gave a fold induction of 1.04 (PhoP, residues 12 14 15 18 19 HLGGL (Escherichia coli, UniProt P23836); Sort-seq, item: YFP reporter; E. coli; PhoQ-PhoP variant library, added: 10 µM Mg2+; reference: high Mg2+ state, higher = stronger signaling).

Excerpt of the above (set 2):
Under “RBNS enrichment (R)”, `GCCACGUUGUCAUUGUGAGUCUAUAGCUUGACUCCUUGGAGAACAAUAUUCAUUUGGUUGUGGAGACUGAUUUGCUGGGAGAAAUCUGUCCUGUUACUUUCUGGUCAUCC` is recorded as 0.651.
`CCGAGGAGGAGGUCCCCUGGGCACAGGGCCUCUUUGGGACUUCAGAGGAAAUCUCCCAGUCCCACUCUCGGAGGGUUAAGAGAAGGCCUCCUGCAGCUGUGCCGUCCACA` — result for “RBNS enrichment (R)”: 0.381.
